Measured values pooled from the literature.
Compare with care: the assays were run in different laboratories. ± marks the error that the study gave.
UniProt Q12809, sequence (whole entry, looked up): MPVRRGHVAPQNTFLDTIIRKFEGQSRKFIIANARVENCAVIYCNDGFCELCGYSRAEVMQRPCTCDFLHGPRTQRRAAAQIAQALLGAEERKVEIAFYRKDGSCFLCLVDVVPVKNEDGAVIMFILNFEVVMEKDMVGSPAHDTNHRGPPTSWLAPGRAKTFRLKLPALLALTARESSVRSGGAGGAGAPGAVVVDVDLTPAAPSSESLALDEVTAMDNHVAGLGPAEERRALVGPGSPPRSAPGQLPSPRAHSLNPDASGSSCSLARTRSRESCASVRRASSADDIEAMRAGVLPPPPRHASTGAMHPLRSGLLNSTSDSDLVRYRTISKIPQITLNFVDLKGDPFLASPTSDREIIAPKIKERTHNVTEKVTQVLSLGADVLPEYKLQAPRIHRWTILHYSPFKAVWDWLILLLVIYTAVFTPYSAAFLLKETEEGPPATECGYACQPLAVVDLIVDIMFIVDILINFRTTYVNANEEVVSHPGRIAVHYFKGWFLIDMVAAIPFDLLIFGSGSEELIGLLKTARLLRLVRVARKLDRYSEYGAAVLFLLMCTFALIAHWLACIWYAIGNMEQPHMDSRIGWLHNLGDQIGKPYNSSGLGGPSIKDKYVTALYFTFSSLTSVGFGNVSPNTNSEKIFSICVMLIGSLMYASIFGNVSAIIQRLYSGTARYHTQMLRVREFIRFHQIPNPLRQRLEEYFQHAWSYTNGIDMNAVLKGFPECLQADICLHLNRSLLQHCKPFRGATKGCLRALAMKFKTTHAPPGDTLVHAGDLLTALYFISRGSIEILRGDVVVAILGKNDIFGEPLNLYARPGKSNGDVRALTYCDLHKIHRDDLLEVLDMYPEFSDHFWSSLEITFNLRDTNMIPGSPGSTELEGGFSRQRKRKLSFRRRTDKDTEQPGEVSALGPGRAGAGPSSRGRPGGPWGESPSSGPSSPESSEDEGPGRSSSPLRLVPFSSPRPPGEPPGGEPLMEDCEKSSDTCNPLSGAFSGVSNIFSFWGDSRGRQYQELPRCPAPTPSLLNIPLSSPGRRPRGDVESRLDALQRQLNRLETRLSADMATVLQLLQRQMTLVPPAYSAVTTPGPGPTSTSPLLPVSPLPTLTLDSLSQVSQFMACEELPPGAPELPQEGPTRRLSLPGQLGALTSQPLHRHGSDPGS

Structure (SMILES)	target or system	test	system	conditions	how to read	measurement	value
CS(=O)(=O)NCC1CCOC2(CCN(C(=O)C3(c4ccccc4)CCC3)CC2)C1 (stereo not shown)	Venezuelan equine encephalitis virus	viral replication	–	40 µM	–	inhibition	20%
COCC1=N[C@]23c4c(OC)cc(OC)cc4O[C@@]2(c2ccc(OC)cc2)[C@H](c2ccccc2)[C@@H](C(=O)N(C)OC)[C@]3(O)N1	SARS-CoV	–	A549-ACE2	concentration not given, 48 h	–	inhibition	~50%
CC(C)(C)C(O)(CCc1ccc(Cl)cc1)Cn1cncn1 (stereo not shown)	Xanthomonas oryzae pv. oryzae	bacterial growth	–	128 µg/mL	–	inhibition	100%
CN(C)S(=O)(=O)NCC1CCOC2(CCN(C(=O)C3(c4ccncc4)CCCC3)CC2)C1 (stereo not shown)	Venezuelan equine encephalitis virus	viral replication	–	40 µM	–	inhibition	< 10%
COc1ccc(C[C@@H]2c3cc(Oc4cc(C[C@@H]5c6cc(O)c(OC)cc6CCN5C)ccc4O)c(OC)cc3CCN2C)cc1	Severe acute respiratory syndrome coronavirus 2	cytopathic effect	Vero C1008	25 µM	–	inhibition	0%
CC[C@H](C)[C@H](NC(=O)[C@H](CC(C)C)NC(=O)[C@H](Cc1c[nH]c2ccccc12)NC(=O)[C@H](CCC(N)=O)NC(=O)[C@@H](NC(=O)[C@H](Cc1ccccc1)NC(=O)[C@H](C)NC(=O)[C@H](CCCCNC(=O)COCCOCCNC(=O)COCCOCCNC(=O)CC[C@H](NC(=O)CCCCCCCCCCCCCCCCCCC(=O)O)C(=O)O)NC(=O)[C@H](CCC(N)=O)NC(=O)[C@H](C)NC(=O)[C@@H](NC(=O)[C@H](CCCCN)NC(=O)[C@H](CC(=O)O)NC(=O)[C@H](CC(C)C)NC(=O)C(C)(C)NC(=O)[C@@H](NC(=O)[C@H](CO)NC(=O)[C@H](Cc1ccc(O)cc1)NC(=O)[C@H](CC(=O)O)NC(=O)[C@H](CO)NC(=O)[C@@H](NC(=O)[C@H](Cc1ccccc1)NC(=O)[C@@H](NC(=O)CNC(=O)[C@H](CCC(=O)O)NC(=O)C(C)(C)NC(=O)[C@@H](N)Cc1ccc(O)cc1)[C@@H](C)O)[C@@H](C)O)[C@@H](C)CC)[C@@H](C)CC)C(C)C)C(=O)N[C@@H](C)C(=O)NCC(=O)NCC(=O)N1CCC[C@H]1C(=O)N[C@@H](CO)C(=O)N[C@@H](CO)C(=O)NCC(=O)N[C@@H](C)C(=O)N1CCC[C@H]1C(=O)N1CCC[C@H]1C(=O)N1CCC[C@H]1C(=O)N[C@@H](CO)C(N)=O	–	–	human, plasma	subcutaneous, 10.0 mg once weekly, week 15, multiple doses	–	terminal half-life	132 h
COc1ccc(C2(C(=O)N3CCC4(CC3)CC(CNS(C)(=O)=O)CCO4)CCCC2)cc1 (stereo not shown)	Venezuelan equine encephalitis virus	viral replication	–	40 µM	–	inhibition	< 10%
CC(=O)O[C@]1(C(C)=O)CC[C@H]2[C@@H]3C=C(Cl)C4=CC(=O)[C@@H]5C[C@@H]5[C@]4(C)[C@H]3CC[C@@]21C	Enterovirus C	viral replication, measured: Gaussia luciferase	HeLa	10 µM, 48 h	–	inhibition	85.1%
CC(C)(C)[C@H](NC(=O)C(F)(F)F)C(=O)N1C[C@H]2[C@@H]([C@H]1C(=O)N[C@H](C#N)C[C@@H]1CCNC1=O)C2(C)C	–	–	human, fasted	oral, 500 mg single dose, 28 days, no ritonavir	–	participants with severe adverse events	0%
O=C(NCC1CCOC2(CCN(C(=O)C3(c4ccccc4)CCCC3)CC2)C1)Nc1ccccc1 (stereo not shown)	Venezuelan equine encephalitis virus	viral replication	–	40 µM	–	inhibition	70%
O=C(NC1CCCCC1)C(c1cccs1)N(Cc1ccc2c(c1)OCO2)C(=O)Cc1c[nH]c2ccccc12 (stereo not shown)	Rickettsia prowazekii	–	Vero cells	9.4 µM, 72 h	–	inhibition	21%
CCCCN(C)CCCNC(=O)c1ccc2nc(N3CCCCC3)sc2c1	SARS-CoV-2	cytopathic effect	USA_WA1/2020	retest, 8-point, duplicates	–	maximum response	6.99%
CCC(CC)COC(=O)[C@H](C)N[P@](=O)(OC[C@H]1O[C@@](C#N)(c2ccc3c(N)ncnn23)[C@H](O)[C@@H]1O)Oc1ccccc1	Severe acute respiratory syndrome coronavirus 2	viral replication, inhibitor, qPCR	Vero C1008	10 µM	–	inhibition	97.6%
CN1CCN(C(c2ccccc2)c2ccc(Cl)cc2)CC1 (stereo not shown)	Marburg marburgvirus	viral entry	A549	12.5 µM	–	inhibition	≥ 75%
NC(=O)c1ncn([C@@H]2O[C@H](CO)[C@@H](O)[C@H]2O)n1	Enterovirus C	viral replication, measured: Gaussia luciferase	HeLa	10 µM, 48 h	–	inhibition	60.3%
Cc1cccn2c(=O)c3cc(C(=O)Nc4ccc(N(C)C)cc4)n(C)c3nc12	Severe acute respiratory syndrome coronavirus 2	viral replication, inhibitor, qPCR	Vero C1008	1 µM	–	inhibition	87.6%
CCc1c(C(=O)C(N)=O)c2c(OCC(=O)O)cccc2n1Cc1ccccc1	Daboia russelii	–	C2C12	100 µM, with: Daboia russelii venom MH	relative to: venom alone	viability difference	-59.4%

Structure (SMILES)	target or system	test	system	conditions	how to read	measurement	value
CC(C)=CCc1c(O)ccc(C(=O)/C=C/c2ccc(O)cc2)c1O	Severe acute respiratory syndrome coronavirus 2	cytopathic effect, inhibitor	Vero C1008	100 µM	–	inhibition	90%
CC(Nc1nc(N2CCNCC2C)nc2ccccc12)c1ccccc1 (stereo not shown)	SARS-CoV-2	cytopathic effect	USA_WA1/2020	retest 8-point	–	maximum response	84.4%
C=C[C@@](C)(/C=C/c1ccc(O)cc1)CCC=C(C)C	Severe acute respiratory syndrome coronavirus 2	cytopathic effect, inhibitor	Vero C1008	0.7812 µM	–	inhibition	0%
CS(=O)(=O)NCC1CCOC2(CCN(C(=O)Cc3ccccc3)CC2)C1 (stereo not shown)	Venezuelan equine encephalitis virus	viral replication	–	40 µM	–	inhibition	20%
Cn1cnc(Cn2c(=O)[nH]/c(=N\c3cc4cn(C)nc4cc3Cl)n(Cc3cc(F)c(F)cc3F)c2=O)n1	–	–	human, moderate renal impairment, plasma	oral, 375 mg single dose, 24 h	–	unbound fraction	0.0141
CC[C@H](C)[C@H](NC(=O)[C@H](CC(C)C)NC(=O)[C@H](Cc1c[nH]c2ccccc12)NC(=O)[C@H](CCC(N)=O)NC(=O)[C@@H](NC(=O)[C@H](Cc1ccccc1)NC(=O)[C@H](C)NC(=O)[C@H](CCCCNC(=O)COCCOCCNC(=O)COCCOCCNC(=O)CC[C@H](NC(=O)CCCCCCCCCCCCCCCCCCC(=O)O)C(=O)O)NC(=O)[C@H](CCC(N)=O)NC(=O)[C@H](C)NC(=O)[C@@H](NC(=O)[C@H](CCCCN)NC(=O)[C@H](CC(=O)O)NC(=O)[C@H](CC(C)C)NC(=O)C(C)(C)NC(=O)[C@@H](NC(=O)[C@H](CO)NC(=O)[C@H](Cc1ccc(O)cc1)NC(=O)[C@H](CC(=O)O)NC(=O)[C@H](CO)NC(=O)[C@@H](NC(=O)[C@H](Cc1ccccc1)NC(=O)[C@@H](NC(=O)CNC(=O)[C@H](CCC(=O)O)NC(=O)C(C)(C)NC(=O)[C@@H](N)Cc1ccc(O)cc1)[C@@H](C)O)[C@@H](C)O)[C@@H](C)CC)[C@@H](C)CC)C(C)C)C(=O)N[C@@H](C)C(=O)NCC(=O)NCC(=O)N1CCC[C@H]1C(=O)N[C@@H](CO)C(=O)N[C@@H](CO)C(=O)NCC(=O)N[C@@H](C)C(=O)N1CCC[C@H]1C(=O)N1CCC[C@H]1C(=O)N1CCC[C@H]1C(=O)N[C@@H](CO)C(N)=O	–	–	healthy subjects, single ascending dose	1.0 mg, titre ≥1:20	–	treatment-induced ADA positive subjects	0%
CN(CC1CCOC2(CCN(C(=O)C3(c4ccccc4)CCCC3)CC2)C1)C(=O)c1ccccn1 (stereo not shown)	Venezuelan equine encephalitis virus	viral replication	–	40 µM	–	inhibition	60%
CC(=O)c1c(O)c(C)c(O)c(Cc2c(O)c3c(c(C(=O)/C=C/c4ccccc4)c2O)OC(C)(C)C=C3)c1O	Voltage-gated inwardly rectifying potassium channel KCNH2 (KCNH2, Homo sapiens, UniProt Q12809)	ion current, whole-cell patch clamp	HEK293 expressing hERG1	15 µM, at -120 mV	–	slow deactivation time constant	235 ± 15 ms
CCCC1C(=O)N2C(N(C)C)=Nc3ccc(C)cc3N2C1=O (stereo not shown)	Enterovirus C	viral replication, measured: Gaussia luciferase	HeLa	10 µM, 48 h	–	inhibition	94.1%
Cc1ccc(NC(=O)c2cc3c(=O)n4cccc(C)c4nc3n2C)cc1Cl	Severe acute respiratory syndrome coronavirus 2	viral replication, inhibitor, qPCR	Vero C1008	10 µM	–	inhibition	96.5%
O=C(/C=C/c1ccc(O)c(O)c1/C=C/c1ccc(O)c(O)c1)O[C@H](Cc1ccc(O)c(O)c1)C(=O)O	Severe acute respiratory syndrome coronavirus 2	cytopathic effect	Vero C1008	3.125 µM	–	inhibition	0%
Nc1ncnc2c([C@@H]3N[C@H](CO)[C@@H](O)[C@H]3O)c[nH]c12	Marburg virus	viral replication	HeLa, Angola	25 µM	–	inhibition	93.8%
Cn1cnc(Cn2c(=O)[nH]/c(=N\c3cc4cn(C)nc4cc3Cl)n(Cc3cc(F)c(F)cc3F)c2=O)n1	Severe acute respiratory syndrome coronavirus 2	viral replication	Vero C1008	5.716 nM	–	inhibition	0%
COc1ccccc1NC(=O)NCC1CCOC2(CCN(C(=O)C3(c4ccccc4)CCCC3)CC2)C1 (stereo not shown)	Venezuelan equine encephalitis virus	viral replication	–	40 µM	–	inhibition	40%
O=C(O[C@@H]1Cc2c(O)cc(O)cc2O[C@@H]1c1cc(O)c(O)c(O)c1)c1cc(O)c(O)c(O)c1	Severe acute respiratory syndrome coronavirus 2	cytopathic effect, inhibitor	Vero C1008	12.5 µM	–	inhibition	0%
CN(C)S(=O)(=O)NCC1CCOC2(CCN(C(=O)C(=O)c3ccccc3)CC2)C1 (stereo not shown)	Venezuelan equine encephalitis virus	viral replication	–	40 µM	–	inhibition	40%
CNC(=O)[C@@H](NC(=O)[C@H](CC(C)C)[C@H](O)C(=O)NO)C(C)(C)C	human fibrinogen	SDS-PAGE	Daboia russelii	concentration not given, unit not given, with: KA venom	relative to: untreated fibrinogen	remaining fibrinogen γ chain	0.863

For quick reference, copied from above:
Structure (SMILES)	target or system	test	system	conditions	how to read	measurement	value
CC(C)=CCc1c(O)ccc(C(=O)/C=C/c2ccc(O)cc2)c1O	Severe acute respiratory syndrome coronavirus 2	cytopathic effect, inhibitor	Vero C1008	100 µM	–	inhibition	90%
Cn1cnc(Cn2c(=O)[nH]/c(=N\c3cc4cn(C)nc4cc3Cl)n(Cc3cc(F)c(F)cc3F)c2=O)n1	Severe acute respiratory syndrome coronavirus 2	viral replication	Vero C1008	5.716 nM	–	inhibition	0%
CNC(=O)[C@@H](NC(=O)[C@H](CC(C)C)[C@H](O)C(=O)NO)C(C)(C)C	human fibrinogen	SDS-PAGE	Daboia russelii	concentration not given, unit not given, with: KA venom	relative to: untreated fibrinogen	remaining fibrinogen γ chain	0.863
COc1ccccc1NC(=O)NCC1CCOC2(CCN(C(=O)C3(c4ccccc4)CCCC3)CC2)C1 (stereo not shown)	Venezuelan equine encephalitis virus	viral replication	–	40 µM	–	inhibition	40%
